Measurements of several laboratories.
Each numbered part is a random draw from the data of one study; scales do not carry over between parts.
Chain of UniProt Q99558 (whole entry, looked up): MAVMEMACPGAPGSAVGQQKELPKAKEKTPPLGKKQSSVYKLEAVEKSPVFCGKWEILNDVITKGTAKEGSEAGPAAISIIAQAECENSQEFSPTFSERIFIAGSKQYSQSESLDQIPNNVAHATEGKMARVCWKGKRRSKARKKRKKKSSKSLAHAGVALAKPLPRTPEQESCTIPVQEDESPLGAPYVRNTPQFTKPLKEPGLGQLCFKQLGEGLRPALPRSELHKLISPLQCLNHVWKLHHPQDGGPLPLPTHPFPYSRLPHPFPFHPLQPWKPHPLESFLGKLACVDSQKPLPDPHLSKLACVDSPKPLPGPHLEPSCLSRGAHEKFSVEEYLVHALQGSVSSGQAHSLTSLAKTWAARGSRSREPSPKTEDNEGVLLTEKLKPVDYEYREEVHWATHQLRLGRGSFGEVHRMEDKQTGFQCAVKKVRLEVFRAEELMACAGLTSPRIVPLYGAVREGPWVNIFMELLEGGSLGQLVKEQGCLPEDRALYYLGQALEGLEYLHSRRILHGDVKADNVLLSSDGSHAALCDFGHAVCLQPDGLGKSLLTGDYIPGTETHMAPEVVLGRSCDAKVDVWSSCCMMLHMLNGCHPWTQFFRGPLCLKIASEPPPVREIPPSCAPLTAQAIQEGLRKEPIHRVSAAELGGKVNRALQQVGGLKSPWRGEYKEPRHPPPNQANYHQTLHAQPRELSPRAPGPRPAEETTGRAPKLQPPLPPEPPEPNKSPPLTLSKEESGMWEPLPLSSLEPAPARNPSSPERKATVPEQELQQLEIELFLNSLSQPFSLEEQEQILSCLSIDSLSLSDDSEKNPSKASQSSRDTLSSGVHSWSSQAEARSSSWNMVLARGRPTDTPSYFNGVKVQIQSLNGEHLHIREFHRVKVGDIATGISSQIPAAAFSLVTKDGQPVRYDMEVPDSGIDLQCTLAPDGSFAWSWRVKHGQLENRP
Chain of UniProt P10398 (whole entry, looked up): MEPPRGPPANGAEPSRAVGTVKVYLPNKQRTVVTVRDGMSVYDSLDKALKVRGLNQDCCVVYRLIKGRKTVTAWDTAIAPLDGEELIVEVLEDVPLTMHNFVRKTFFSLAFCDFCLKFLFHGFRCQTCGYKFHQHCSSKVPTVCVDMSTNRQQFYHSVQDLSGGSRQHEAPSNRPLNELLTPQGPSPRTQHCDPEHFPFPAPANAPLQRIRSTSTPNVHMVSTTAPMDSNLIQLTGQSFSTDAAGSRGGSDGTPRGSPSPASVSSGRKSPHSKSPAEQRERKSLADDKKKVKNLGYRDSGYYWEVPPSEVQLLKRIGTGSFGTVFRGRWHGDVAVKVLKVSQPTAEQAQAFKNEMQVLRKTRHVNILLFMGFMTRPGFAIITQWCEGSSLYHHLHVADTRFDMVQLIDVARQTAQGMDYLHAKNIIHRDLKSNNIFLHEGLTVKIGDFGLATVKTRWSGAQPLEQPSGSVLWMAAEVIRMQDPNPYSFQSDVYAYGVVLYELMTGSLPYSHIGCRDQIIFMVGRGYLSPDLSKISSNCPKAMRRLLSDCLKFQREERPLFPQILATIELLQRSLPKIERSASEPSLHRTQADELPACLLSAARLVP
Chain of UniProt P36896 (whole entry, looked up): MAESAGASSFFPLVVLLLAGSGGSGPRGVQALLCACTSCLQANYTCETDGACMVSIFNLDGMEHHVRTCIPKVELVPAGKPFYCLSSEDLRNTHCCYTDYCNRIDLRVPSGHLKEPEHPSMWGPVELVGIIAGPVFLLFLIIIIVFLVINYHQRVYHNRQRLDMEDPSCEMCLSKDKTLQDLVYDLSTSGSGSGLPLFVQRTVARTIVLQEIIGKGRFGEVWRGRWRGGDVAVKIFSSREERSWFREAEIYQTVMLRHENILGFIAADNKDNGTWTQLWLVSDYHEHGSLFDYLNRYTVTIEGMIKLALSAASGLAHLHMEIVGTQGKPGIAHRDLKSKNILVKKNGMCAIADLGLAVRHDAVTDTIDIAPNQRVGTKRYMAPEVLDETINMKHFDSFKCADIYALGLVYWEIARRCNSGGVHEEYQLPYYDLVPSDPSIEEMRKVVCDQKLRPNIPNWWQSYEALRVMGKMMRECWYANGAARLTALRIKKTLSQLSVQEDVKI
Chain of UniProt Q8WTQ7 (whole entry, looked up): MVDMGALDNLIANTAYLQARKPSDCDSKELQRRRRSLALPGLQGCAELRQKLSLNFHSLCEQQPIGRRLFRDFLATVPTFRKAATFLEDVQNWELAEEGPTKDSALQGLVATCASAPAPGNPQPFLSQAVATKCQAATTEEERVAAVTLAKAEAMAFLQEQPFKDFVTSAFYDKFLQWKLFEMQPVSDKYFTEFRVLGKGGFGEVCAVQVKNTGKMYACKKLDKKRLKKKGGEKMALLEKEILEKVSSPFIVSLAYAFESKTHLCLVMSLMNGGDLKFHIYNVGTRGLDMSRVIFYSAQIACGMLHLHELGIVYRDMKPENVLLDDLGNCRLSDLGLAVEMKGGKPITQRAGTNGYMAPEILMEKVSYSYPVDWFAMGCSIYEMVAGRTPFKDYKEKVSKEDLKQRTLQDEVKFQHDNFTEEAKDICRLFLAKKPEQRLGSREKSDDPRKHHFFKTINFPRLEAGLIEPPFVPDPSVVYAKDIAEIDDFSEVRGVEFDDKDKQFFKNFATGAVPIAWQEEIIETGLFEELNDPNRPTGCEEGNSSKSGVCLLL
Chain of UniProt P11362 (whole entry, looked up): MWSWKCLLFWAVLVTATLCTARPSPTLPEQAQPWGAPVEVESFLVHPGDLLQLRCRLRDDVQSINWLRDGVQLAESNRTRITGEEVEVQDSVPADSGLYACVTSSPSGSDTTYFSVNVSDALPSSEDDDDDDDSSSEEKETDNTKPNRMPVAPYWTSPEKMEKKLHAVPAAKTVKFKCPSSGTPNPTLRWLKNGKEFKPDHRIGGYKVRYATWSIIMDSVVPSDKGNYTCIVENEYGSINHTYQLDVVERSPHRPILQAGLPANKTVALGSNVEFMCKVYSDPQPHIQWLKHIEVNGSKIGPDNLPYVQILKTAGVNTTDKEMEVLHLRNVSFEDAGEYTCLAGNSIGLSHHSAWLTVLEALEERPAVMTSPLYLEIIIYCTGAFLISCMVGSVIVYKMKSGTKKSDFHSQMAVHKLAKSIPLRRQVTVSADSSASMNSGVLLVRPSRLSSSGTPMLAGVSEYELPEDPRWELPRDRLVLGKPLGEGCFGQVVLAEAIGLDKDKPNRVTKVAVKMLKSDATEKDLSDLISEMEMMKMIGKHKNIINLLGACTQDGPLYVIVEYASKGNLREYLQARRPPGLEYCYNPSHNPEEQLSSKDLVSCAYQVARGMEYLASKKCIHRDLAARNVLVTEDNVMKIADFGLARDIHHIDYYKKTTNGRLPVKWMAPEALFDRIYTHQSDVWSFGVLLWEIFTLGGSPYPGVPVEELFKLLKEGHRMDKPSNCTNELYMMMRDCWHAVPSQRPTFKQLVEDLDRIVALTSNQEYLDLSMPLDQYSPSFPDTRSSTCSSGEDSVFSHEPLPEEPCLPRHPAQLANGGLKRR
Chain of UniProt P78368 (whole entry, looked up): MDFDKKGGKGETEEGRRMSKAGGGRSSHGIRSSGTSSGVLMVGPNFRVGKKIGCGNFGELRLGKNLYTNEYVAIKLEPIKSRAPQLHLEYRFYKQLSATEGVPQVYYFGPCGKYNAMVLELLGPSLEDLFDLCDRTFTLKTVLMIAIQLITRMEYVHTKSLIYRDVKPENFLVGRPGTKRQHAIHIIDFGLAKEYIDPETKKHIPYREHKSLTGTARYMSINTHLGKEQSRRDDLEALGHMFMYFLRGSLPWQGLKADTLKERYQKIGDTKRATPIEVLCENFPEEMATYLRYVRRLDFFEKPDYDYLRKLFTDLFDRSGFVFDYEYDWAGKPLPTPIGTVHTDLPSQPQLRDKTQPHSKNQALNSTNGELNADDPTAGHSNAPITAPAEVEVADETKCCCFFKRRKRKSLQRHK
Chain of UniProt Q9UQM7 (whole entry, looked up): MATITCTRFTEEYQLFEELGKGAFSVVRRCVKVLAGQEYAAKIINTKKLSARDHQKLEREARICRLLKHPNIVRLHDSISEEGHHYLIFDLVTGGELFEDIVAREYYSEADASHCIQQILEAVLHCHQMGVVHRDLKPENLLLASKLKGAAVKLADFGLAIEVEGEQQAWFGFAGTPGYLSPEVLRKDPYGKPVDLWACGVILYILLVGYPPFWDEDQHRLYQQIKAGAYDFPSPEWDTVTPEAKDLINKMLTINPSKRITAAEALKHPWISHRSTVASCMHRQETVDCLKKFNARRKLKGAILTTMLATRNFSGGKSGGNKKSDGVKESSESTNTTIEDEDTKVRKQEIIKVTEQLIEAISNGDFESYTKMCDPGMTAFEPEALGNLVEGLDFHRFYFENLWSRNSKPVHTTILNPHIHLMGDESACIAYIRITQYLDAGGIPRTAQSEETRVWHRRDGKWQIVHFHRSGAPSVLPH

Study 1 — effect on: enzyme activity; action: inhibitor; tested at: 0.5 µM; relative to: control
Compound: Nc1cccc(-c2cc3c(Oc4cccc(O)c4)ncnc3[nH]2)c1
target | remaining activity [%]
JAK3 (Homo sapiens, UniProt P52333) | 123
FGFR1 (Homo sapiens, UniProt P11362) | 39.3
LCK (Homo sapiens, UniProt P06239) | 24.2
CSNK1G3 (Homo sapiens, UniProt Q9Y6M4) | 92.6
GRK7 (Homo sapiens, UniProt Q8WTQ7) | 102
CSNK1G2 (Homo sapiens, UniProt P78368) | 84.9
ARAF (Homo sapiens, UniProt P10398) | 57.3
EPHA3 (Homo sapiens, UniProt P29320) | 39.7
TBK1 (Homo sapiens, UniProt Q9UHD2) | 92.9
MAP3K5 (Homo sapiens, UniProt Q99683) | 94.9
ACVR1B (Homo sapiens, UniProt P36896) | 122

Study 2 — effect on: cell-free assay; method: competition with immobilised ligand; tested at: 1 µM
SMILES: CO[C@H]1CC[C@H](CNc2ccc(S(=O)(=O)NC(=O)c3ccc(N4CCN(CC5=C(c6ccc(Cl)cc6)CC(C)(C)CC5)CC4)cc3Oc3cnc4[nH]ccc4c3)cc2[N+](=O)[O-])CC1
target | remaining binding [%]
CAMK2A (Homo sapiens, UniProt Q9UQM7) | 68
DDR1 (Homo sapiens, UniProt Q08345) | 99
KIT (Homo sapiens, UniProt P10721, A829P) | 100
NTRK2 (Homo sapiens, UniProt Q16620) | 100
MAP3K14 (Homo sapiens, UniProt Q99558) | 100

Study 3 — method: protein-binding microarray; molecule type: double-stranded DNA, one strand shown; medium: in vitro; tested at: 2540 nM top; notes: 60-bp whole probe; together with: salmon DNA 0.4 mg/ml; relative to: random background probes; reading: higher = stronger binding; constant ends, left off below: GCCTAGCAC … GTCTTGATTCGCTTGACGCTGCTG
Target: Interferon regulatory factor 3, full length, phosphomimetic (IRF3, Homo sapiens, UniProt Q14653, residues 1-427, S386D/S396D/S398D/S402D/T404D/S405D)
Chain of UniProt Q14653 (whole entry, unmodified, looked up): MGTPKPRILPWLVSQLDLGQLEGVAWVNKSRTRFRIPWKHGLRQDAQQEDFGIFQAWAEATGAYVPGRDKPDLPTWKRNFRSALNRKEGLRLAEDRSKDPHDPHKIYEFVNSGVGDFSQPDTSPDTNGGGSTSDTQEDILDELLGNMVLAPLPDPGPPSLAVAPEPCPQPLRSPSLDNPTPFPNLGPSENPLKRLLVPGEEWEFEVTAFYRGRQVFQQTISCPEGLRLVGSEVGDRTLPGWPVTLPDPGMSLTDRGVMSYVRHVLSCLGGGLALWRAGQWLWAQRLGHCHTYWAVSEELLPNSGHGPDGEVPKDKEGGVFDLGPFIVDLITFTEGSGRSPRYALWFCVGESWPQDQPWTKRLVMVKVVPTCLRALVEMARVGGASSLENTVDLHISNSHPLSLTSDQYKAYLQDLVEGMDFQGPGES
Strand | fitted relative affinity [z-score]
GACGATTTCAGACTGGAGCCGTGCTAG | 0.925
GATTCTTTCGATGCTAAACGAGTGCTA | 1.59
GACGTTATCGACTTTCGGGACGTGCTA | 0.865
GACGATATCGGGACTGGCGACGTGCTA | 0.015
TCACATTTTGGTTTTCAACTGTGCTAG | 2.13
TCTTTTTGCTTTCTTTATGCGTGCTAG | 2.55
ATAAATATGAGACTGGGGATGTGCTAG | -0.286
TCACCTCTAGGTTTTCTACTGTGCTAG | 0.502

Study 4 — method: RNA Bind-n-Seq; molecule type: RNA; medium: in vitro; tested at: not given; notes: RNA with constant flanks, ends assumed; relative to: input RNA pool; reading: higher = stronger binding
Target: RING finger protein unkempt homolog, zinc fingers 1-6, GST-SBP tag (UNK, Homo sapiens, UniProt Q9C0B0, residues 30-357)
Constant ends, left off below: GGGAGUUCUACAGUCCGACGAUC … CAACAGAGGAUUGAGCAUCA
Construct (chain): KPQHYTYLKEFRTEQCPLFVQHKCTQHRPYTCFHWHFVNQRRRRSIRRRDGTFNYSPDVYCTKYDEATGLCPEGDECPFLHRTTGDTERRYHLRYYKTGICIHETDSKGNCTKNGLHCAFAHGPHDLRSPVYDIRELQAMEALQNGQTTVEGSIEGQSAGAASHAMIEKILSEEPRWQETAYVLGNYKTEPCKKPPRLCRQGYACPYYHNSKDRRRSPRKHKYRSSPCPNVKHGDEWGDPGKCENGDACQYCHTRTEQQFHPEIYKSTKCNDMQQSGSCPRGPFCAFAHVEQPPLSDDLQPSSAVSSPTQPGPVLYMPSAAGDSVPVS
Strand | bound/input enrichment
GGCCAGGAGCGAUUUCACACCAUCACAACCUCCUACUACAGAGGCGCAAUGGGUAUCAUGCCCGUAUAUGACAUCACCAAUGGUAAAAGUUUUGAAAACAUCAGCAAAUGGCUUAGAAAC | 0.236 ratio
AACCACCUCAUCCAAAAUAUCCCGGGCUUCUGGGGGCAAGCAUUUCAGAACCAUCCCCAGCCCGCAUCCUUUCUGAAUAGCCAAGAGAAAGAGGUACUGAGCUACUUAAACAGCUUGGAA | 0.217 ratio
GAAGAGAAUGAGGAGGACAGAGAAGUGUCAAGUGAAAAAGAAUUAAAUGGAGAUUCGGAUUCCGAUCCUGAAAACGAGAGUGAAGAAGAAUGAAGACAGAUGCAGCCAGCCAGUCACACG | 0.249 ratio
CUCCUGCCGGGCGCCCGGCAGACCGAAGCGGCUCCAGUGUGCUGCUCUGCUCGGUACAACUCCGCGAUUUUGGCGUUCUGUGGUUUCUUCGUUCUCUAUGCCUUACGGGUGAACCUGAGU | 0.0909 ratio
CAGGGCAGCACCACCCCCUCCUCCUUCUUUCCACACCUGCAAACCCUUUUGCCUGGGCUGCACCGUCCGUGUUAAUUACAUCGCAGCUUUGAGGGCUCCUGUGGCAAAUACCCGGAUUAA | 0.288 ratio
CCAACCUUUUGAUGUUGUGACUUGAAGCCUGAGAAUUGAAUGUUUUAAGUGAGUUUACAGUUCCGUGCUGGGCCACAUUCCUAGUUAUUCUGAGGUAUACGCAGCCUGCAAGCUGCGGUU | 0.165 ratio
AAUUUCCUGUCAUACUUUUUAGACAUUCACAUCAGACUUACAGAGCACCUGGCCACAUUCCCGGUUUGUGUUAUUUCUCAGCUAUGGAUAUGAUCAAAUGAGAACACUGCUUAACUAAUG | 0.284 ratio
CAAGGAAAGCCUAAUUUUGAAGAAUACUUUGAAAUUCUGACUCCAAAAAUCAACCAGACGUUCCGCGGGAUCAUGACUAUGUUGAAUAUGCAGUUUGUUGUACGAGUGAGGAGAUGGGAC | 0.213 ratio

Repeated from above (study 1):
target | remaining activity [%]
EPHA3 (Homo sapiens, UniProt P29320) | 39.7
FGFR1 (Homo sapiens, UniProt P11362) | 39.3
